Assay results of several laboratories.
Parts stem from different laboratories: compare values within a part only.

Set 1
Target: Ras GTPase-activating protein-binding protein 1, full length (G3BP1, Homo sapiens, UniProt Q13283)
UniProt Q13283, sequence (whole entry, looked up): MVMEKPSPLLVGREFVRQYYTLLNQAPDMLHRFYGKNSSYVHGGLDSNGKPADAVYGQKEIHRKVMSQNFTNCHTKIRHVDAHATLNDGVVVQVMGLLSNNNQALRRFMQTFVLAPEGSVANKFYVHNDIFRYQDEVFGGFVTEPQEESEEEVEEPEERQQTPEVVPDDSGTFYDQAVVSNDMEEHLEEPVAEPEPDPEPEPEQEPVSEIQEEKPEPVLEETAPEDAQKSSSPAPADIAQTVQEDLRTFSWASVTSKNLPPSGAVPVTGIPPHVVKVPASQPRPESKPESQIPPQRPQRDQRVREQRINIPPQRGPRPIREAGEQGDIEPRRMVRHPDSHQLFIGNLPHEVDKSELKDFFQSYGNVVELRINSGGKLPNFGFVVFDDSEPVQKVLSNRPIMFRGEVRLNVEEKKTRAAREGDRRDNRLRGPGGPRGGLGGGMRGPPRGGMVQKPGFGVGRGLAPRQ
Technique: RNA Bind-n-Seq
Form: RNA
Matrix: in vitro
Concentration: 200 nM
Setting: whole 134-nt RNA, ends assumed
With: 150 mM LiCl
Reference: input library
Reading: higher = stronger binding
Library: 7-deaza-guanosine replaces G
All sequences stand within: GGGAGUUCUACAGUCCGACGAUC … UGGAAUUCUCGGGUGUCAAGG
With `UGGGAGGUGGAUUUUGUUUAUUUUUUUAGCUCAUUUCCAGGGGUGGGAAUUUUUUUUUAAUAUGUGUCAUGAAUAAAGUCGUUUUUGAAA` the log2 enrichment was 0.026.
With `UUAGAAGAAGAAGAUGGAGUGUGGGAGAAUGGACUUUCCUAUGAAUGCCGUACUCUGCUUUUCAAAGCAGUUCACAAUCUAUUGGAACGG` the log2 enrichment was -2.69.
For `UCAAGUCCUGUGCUACACAUCGUAUGUACCGAAUCGGAAAGGUUUUUGGAAAGGAAAGUAUUAUGUUACGCCGUUCGGAUCUGCACUUCC`, the log2 enrichment was -0.311.
For `GUCCUGUGCUACACAUCGUAUGUACCGAAUCAAACCCCCAAAUUUUUAAACCCCCAAAAAAGUAUUAUGUUACGCCGUUCGGAUCUGCAC`, the log2 enrichment was 1.31.
The log2 enrichment of `CAAGUCCUGUGCUACACAUCGUAUGUACCGAAUCGGGGAGGGGAAAGGGGAGGGGAAAGUAUUAUGUUACGCCGUUCGGAUCUGCACUUC` is reported as 0.421.
`CCUCAAGUCCUGUGCUACACAUCGUAUGUACCGAAUCGGCGGGCGGGCGGGGAAAGUAUUAUGUUACGCCGUUCGGAUCUGCACUUCCAG` has a log2 enrichment of 0.601.
`AAGUCCUGUGCUACACAUCGUAUGUACCGAAUCGGGGUUUGGGGUGGGGAAAGGGGAAAGUAUUAUGUUACGCCGUUCGGAUCUGCACUU` has a log2 enrichment of 0.416.
For `UGGGAGGUGGAUUUUGUUUAUUUUUUUAGCUCAUUUCCAGGGGUGGGAAUUUUUUUUUAAUAUGUGGCAUGAAUAAAGUUGUUUUUGAAA`, the log2 enrichment was 0.168.
For `UGGGAGGUGGAUUUUGUUUAUUUUUUUAGCUCAUUUCCAGGGGUGGGAAUUUUUUUUUAAUAUGUGUCAUGAAUAAAAUUGUUUUUGAAA`, the log2 enrichment was -0.416.
For `GCAGGAAGUAAAAACAAAUGGAAAUGCUUCGGAUAGUGGCAGGGGUGGGGGUUGCUAAGGAAAGGGCGGGAUGGGAGUGGGUAAAGAGUU`, the log2 enrichment was 0.221.
For `CCUGUGCUACACAUCGUAUGUACCGAAUCGGCCCCCCGGGGCCCCCCGGGCCCCCCGGGGAAAGUAUUAUGUUACGCCGUUCGGAUCUGC`, the log2 enrichment was -2.6.

Set 2
Target: Sal-like protein 4, full length isoform A (SALL4, Homo sapiens, UniProt Q9UJQ4, residues 1-1053)
UniProt Q9UJQ4, sequence (whole entry, looked up): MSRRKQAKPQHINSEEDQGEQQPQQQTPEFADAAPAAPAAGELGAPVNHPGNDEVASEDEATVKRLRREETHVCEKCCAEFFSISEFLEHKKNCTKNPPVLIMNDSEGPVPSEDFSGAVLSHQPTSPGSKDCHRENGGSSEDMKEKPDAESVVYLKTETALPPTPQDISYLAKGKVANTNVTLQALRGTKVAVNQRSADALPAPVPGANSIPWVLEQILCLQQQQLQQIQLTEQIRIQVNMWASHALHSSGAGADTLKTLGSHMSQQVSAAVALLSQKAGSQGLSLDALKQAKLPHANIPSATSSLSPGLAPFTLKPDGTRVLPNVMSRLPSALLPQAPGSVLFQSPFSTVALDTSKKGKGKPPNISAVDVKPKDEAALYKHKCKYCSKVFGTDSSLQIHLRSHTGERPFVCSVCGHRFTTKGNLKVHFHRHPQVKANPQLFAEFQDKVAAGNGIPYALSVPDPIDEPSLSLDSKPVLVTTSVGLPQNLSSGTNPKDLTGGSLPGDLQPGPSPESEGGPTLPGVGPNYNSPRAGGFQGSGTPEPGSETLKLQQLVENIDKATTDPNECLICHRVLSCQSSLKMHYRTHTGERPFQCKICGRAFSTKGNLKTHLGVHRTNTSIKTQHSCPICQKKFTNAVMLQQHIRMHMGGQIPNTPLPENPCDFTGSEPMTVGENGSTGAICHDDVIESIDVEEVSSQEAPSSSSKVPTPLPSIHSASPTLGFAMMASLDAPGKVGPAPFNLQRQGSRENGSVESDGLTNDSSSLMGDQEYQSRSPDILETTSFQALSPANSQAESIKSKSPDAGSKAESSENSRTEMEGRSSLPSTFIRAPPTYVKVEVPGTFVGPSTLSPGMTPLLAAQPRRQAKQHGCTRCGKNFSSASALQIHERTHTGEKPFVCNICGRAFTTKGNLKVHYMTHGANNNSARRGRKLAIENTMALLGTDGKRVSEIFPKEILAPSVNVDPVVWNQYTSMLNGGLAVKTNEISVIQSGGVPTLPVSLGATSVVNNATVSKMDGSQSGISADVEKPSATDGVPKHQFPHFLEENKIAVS
Technique: universal PBM
Form: double-stranded DNA, one strand shown
Matrix: in vitro
Concentration: 600 nM
Setting: 8-mer, flanks averaged, mean of replicates
Reading: higher = stronger binding
The E-score of `GCGCGGCA` is reported as -0.255.
With `AGAGGGGC` the E-score was -0.325.
For `ATGGTCAG`, the E-score was 0.106.
`ACGACTGA` gave an E-score of -0.0743.
The E-score of `CGCCAAAA` is reported as 0.0471.
`ACATAAAG` has an E-score of 0.286.
`CTGCTGAC` has an E-score of -0.16.
The E-score of `AAAAAGCC` is reported as 0.0253.
With `CGTTTAAG` the E-score was 0.0377.
For `ACCATTAC`, the E-score was 0.114.
`CTCTATCA` gave an E-score of 0.0697.
For `CCGCTAGA`, the E-score was -0.193.
With `ACGGCAGT` the E-score was -0.104.
`CAACAGCC` gave an E-score of -0.128.
The E-score of `GGGATCGA` is reported as -0.175.
`AGCGCATA` has an E-score of 0.185.
`ACACTGCG` gave an E-score of -0.223.
The E-score of `GGCGCGAA` is reported as -0.152.
With `GTACGGTA` the E-score was 0.0161.
`ATGAACTA` has an E-score of 0.235.
With `CACTAATA` the E-score was 0.205.
`ATGGAGAC` gave an E-score of 0.0245.
`TGCGTACA` gave an E-score of 0.0898.
The E-score of `AACTTTAA` is reported as 0.257.
With `GTATTCAC` the E-score was 0.17.

Set 3
Target: RNA binding protein fox-1 homolog 2, RRM domain, GST-SBP tag (RBFOX2, Homo sapiens, UniProt O43251-10, residues 100-194)
Technique: RNA Bind-n-Seq
Form: RNA
Matrix: in vitro
Concentration: 365 nM
Setting: natural RNA segment, single round, ends assumed
Reference: no-protein control
Reading: higher = stronger binding
All sequences stand within: GGGAGUUCUACAGUCCGACGAUC … UGGAAUUCUCGGGUGCCAA
Residues (chain): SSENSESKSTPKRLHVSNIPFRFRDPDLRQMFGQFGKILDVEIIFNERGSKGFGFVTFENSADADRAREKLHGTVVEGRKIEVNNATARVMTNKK
Under “RBNS enrichment (R)”, `UGAGGGAUCCGGGGGUUCAAUUUAUUUUGAUUUUUUUUUUUGGUUGUUUAUUUUUGCUUGUUAUGUUAAGCAAAAAUCCUGCAAUGAAAGGUACUAUAUUUGCCAGACUC` is recorded as 1.45.
`GACUGCAGGAUCAGUCUCAUUCUUCUACUAGGUGCAUGGACUCCCUUCCCACUGACUUACACUCGUCUAUCUAGAAUACAGGUUGUCCAGGCAGCUGGUCACUUACCAGG` — result for “RBNS enrichment (R)”: 0.531.
Under “RBNS enrichment (R)”, `AUCACCUACCCUGUUAAAUGCUGUUUAAUCCCAAGGAUGUAAGUUGAGGUGAGGUGUCUUCUCUGUCUGCCCCAUUGCACUCAACUGAAUAGAAAUAUUUGGGUUUAGAG` is recorded as 0.323.
For `UUUGAUCCUACCAAAACCACUGCUGCUGUUUCUGAGAAAAGAAAGCAUUUUAUUCACCUGCAAGAUCACAUCCCUAGCUUUGAUUUUGCUUAAAUGAUAGGGACUUAAGA`, “RBNS enrichment (R)” read 0.49.
Under “RBNS enrichment (R)”, `CUAAUGUCAUGGCUGUGGGAUAUUAGAGAAGUGGGUUUAUGACUCUGAAGACCAGCAGACACCAGACUUUAAAAGUGCUUAAAUUGGAAUUUGGAAACUACAGUAAAGAA` is recorded as 0.609.
`GUGUGGACUUCUCAUCUAAAAGGUUAGUGGCUUUUGCUUGGGAUCAGUGCUCUCUAUUGAUGUUCUUGCUGGUCUCCAGACACAUUCCUGUUGCAUUAAGACUUGAAAGA`: “RBNS enrichment (R)” 1.01.
`GCCCAGCUCUGCAGGAGUCUGAGAAGGAAUUCUGGGGCUACCACCUUAGGAACGAAAUUGUGCCCAGCCAGAAAGAAUGCUGGCUCAUAAUAGAUUCUUACCCAAUGCCA` — result for “RBNS enrichment (R)”: 1.32.
`GCCCUUGCUGGUCUCUCCACACAUUCCUGUCAUUGAGACUUGAAUUGUAGGUGUGAUGUUAUGCACAGGAUGCUCAGAGCUAUGUUACUACUAUUCUUAGUUUGUAAAUU` — result for “RBNS enrichment (R)”: 0.293.
For `CUGUUGUGAAUGCCCAGUUGUAUUUUUAUAAGGUUGUAUAUAUGGGGAAAAAAAGUAUCGGUGAGUUUUAAAUGAAAGCACAUAUUACUGCCAGCGUGGAGAGAGGAAGA`, “RBNS enrichment (R)” read 1.91.
`GAUGGCGCCCAGCCCAGCCCUAACUGCCAGCUGGCUGGGGUUGCGCCCCACUGCGCUGCUGACCUUCCUGCAGUUCCAGACACCUCCCACAAUAAAGAGCUCCUCCUCUG`: “RBNS enrichment (R)” 0.807.
Under “RBNS enrichment (R)”, `CUUUUUGCUGUACAAAUCUGUUUAAAAAAAAAAAAAAGUAACUCAUUGAAUUAACUUGCAGUGGUGUGUUUGAUUCUUUUUUAGACUGGCUUCAGCAUUGUGCAGUUUAA` is recorded as 0.654.
`UCAUUCCCAGAACCUGGAUGCUAUUACACAUGCUUUUAAGAAACGUCAAUGUAUAUCCUUUUAUAACUCUACCACUUUGGGGCAAGCUAUUCCAGCACUGGUUUUGAAUG`: “RBNS enrichment (R)” 0.426.

Set 4
Target: Histone acetyltransferase KAT6A, both winged helices, GST fusion (KAT6A, Homo sapiens, UniProt Q92794, residues 1-181)
Technique: protein binding microarray
Form: double-stranded DNA, one strand shown
Matrix: in vitro
Concentration: not given
Setting: 8-mer, flanks averaged, mean of 2 arrays, mostly near background
Reference: not given
Reading: higher = stronger binding
Residues (chain): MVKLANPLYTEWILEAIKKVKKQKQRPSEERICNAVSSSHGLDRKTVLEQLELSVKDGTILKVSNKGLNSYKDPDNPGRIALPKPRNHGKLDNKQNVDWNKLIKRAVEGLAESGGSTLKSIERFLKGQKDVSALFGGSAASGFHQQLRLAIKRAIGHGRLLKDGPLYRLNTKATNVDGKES
For `CGCTTTAC`, the E-score was 0.187.
`ACAATGGT` gave an E-score of -0.104.
`ATGTTAAG` has an E-score of -0.08.
`AACGAGAA` gave an E-score of -0.141.
For `ATGAGGGG`, the E-score was -0.204.
`GCGTCGGA` gave an E-score of 0.289.
The E-score of `CAGAAAGA` is reported as -0.143.
With `ATTCGGCC` the E-score was 0.0939.
For `TACTATCA`, the E-score was -0.0424.
`AGAATGGA` gave an E-score of -0.0794.
`CACTCGAC` gave an E-score of -0.0415.
With `ACTGCAAG` the E-score was -0.138.
The E-score of `CCGGCATA` is reported as 0.292.
`GAGAAGGA` has an E-score of -0.157.
For `ACAGCTAA`, the E-score was -0.123.
For `CTCCGTGC`, the E-score was 0.162.
With `ACTACAAA` the E-score was -0.0787.
The E-score of `CCGGTTCA` is reported as 0.141.
The E-score of `GGGGTTAC` is reported as 0.106.
`GACGACCA` has an E-score of -0.16.
`GCCCATAC` has an E-score of -0.102.
`ATTTGAAA` gave an E-score of 0.0355.
The E-score of `ACAGCGAC` is reported as 0.126.
`AAACGGCA` has an E-score of 0.242.
For `CGATCAGC`, the E-score was 0.0183.

Excerpt of the above (set 4):
`AAACGGCA` has an E-score of 0.242.
The E-score of `GGGGTTAC` is reported as 0.106.
The E-score of `CCGGCATA` is reported as 0.292.
`GAGAAGGA` has an E-score of -0.157.
For `CGCTTTAC`, the E-score was 0.187.
`ATGTTAAG` has an E-score of -0.08.
For `CGATCAGC`, the E-score was 0.0183.
`AGAATGGA` gave an E-score of -0.0794.
`CACTCGAC` gave an E-score of -0.0415.
For `TACTATCA`, the E-score was -0.0424.
`GACGACCA` has an E-score of -0.16.
